# Assay results gathered from unrelated publications.
# Compare with care: the assays were run in different laboratories. ± marks the error that the study gave.
# GLP1R: Glucagon-like peptide 1 receptor (GLP1R, Homo sapiens, UniProt P43220)
# Sequence of UniProt Q62645 (whole entry, looked up): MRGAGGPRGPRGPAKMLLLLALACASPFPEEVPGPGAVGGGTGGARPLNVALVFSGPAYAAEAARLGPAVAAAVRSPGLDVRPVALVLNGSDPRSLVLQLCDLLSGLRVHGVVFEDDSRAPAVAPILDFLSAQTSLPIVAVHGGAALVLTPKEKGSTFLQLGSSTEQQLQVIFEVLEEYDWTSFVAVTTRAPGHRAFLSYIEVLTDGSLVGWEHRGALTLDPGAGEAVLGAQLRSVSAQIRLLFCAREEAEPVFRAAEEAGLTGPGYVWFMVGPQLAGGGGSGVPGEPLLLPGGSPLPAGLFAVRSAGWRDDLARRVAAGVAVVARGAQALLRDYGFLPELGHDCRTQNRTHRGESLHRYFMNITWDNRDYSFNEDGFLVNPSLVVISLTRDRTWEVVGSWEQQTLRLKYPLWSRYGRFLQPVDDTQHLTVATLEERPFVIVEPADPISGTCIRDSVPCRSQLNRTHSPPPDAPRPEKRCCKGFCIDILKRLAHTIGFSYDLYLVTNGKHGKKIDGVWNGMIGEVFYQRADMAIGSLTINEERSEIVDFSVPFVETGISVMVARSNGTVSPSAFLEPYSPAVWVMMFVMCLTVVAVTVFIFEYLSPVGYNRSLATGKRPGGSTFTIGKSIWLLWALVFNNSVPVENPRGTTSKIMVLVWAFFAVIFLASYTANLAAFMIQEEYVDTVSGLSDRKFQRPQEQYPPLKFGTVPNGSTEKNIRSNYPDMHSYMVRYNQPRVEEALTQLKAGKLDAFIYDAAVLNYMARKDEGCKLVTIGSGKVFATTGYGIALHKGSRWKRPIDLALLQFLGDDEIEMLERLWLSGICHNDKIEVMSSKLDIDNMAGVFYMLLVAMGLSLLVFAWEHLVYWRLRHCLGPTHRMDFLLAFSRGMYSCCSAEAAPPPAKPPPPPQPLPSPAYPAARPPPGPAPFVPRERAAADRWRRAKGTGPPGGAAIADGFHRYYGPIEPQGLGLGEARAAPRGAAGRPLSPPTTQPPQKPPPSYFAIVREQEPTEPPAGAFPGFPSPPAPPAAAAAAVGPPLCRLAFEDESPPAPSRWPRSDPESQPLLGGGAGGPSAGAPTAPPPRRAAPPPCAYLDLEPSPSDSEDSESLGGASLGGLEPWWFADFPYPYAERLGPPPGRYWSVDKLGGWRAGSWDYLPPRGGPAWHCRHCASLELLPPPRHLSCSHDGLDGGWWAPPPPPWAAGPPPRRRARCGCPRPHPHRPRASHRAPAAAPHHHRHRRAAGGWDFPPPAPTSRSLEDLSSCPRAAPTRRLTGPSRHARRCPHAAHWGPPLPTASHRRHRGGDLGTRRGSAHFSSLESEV
# Sequence of UniProt Q704Y3 (whole entry, unmodified, looked up): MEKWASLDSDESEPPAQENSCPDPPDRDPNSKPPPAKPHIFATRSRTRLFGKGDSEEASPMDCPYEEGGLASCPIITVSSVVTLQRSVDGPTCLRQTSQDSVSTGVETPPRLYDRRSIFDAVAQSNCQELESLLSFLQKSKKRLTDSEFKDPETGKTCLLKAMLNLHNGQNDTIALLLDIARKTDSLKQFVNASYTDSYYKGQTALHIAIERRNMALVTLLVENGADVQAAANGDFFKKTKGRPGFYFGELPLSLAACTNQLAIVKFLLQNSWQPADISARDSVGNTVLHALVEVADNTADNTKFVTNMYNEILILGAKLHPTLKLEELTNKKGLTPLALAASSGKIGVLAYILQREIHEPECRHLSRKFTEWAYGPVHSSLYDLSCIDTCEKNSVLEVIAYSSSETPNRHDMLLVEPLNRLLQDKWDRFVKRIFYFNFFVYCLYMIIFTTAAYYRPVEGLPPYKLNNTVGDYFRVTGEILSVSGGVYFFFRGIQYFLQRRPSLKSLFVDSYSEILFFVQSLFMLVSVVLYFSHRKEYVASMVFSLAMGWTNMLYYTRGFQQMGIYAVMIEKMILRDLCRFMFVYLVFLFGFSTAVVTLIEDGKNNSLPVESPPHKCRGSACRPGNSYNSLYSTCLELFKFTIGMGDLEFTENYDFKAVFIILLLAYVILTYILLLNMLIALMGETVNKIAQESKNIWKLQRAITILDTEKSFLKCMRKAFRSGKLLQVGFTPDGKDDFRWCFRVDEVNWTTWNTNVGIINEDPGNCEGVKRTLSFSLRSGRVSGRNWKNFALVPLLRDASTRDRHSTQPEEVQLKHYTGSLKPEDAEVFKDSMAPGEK
# Sequence of UniProt P28335 (whole entry, looked up): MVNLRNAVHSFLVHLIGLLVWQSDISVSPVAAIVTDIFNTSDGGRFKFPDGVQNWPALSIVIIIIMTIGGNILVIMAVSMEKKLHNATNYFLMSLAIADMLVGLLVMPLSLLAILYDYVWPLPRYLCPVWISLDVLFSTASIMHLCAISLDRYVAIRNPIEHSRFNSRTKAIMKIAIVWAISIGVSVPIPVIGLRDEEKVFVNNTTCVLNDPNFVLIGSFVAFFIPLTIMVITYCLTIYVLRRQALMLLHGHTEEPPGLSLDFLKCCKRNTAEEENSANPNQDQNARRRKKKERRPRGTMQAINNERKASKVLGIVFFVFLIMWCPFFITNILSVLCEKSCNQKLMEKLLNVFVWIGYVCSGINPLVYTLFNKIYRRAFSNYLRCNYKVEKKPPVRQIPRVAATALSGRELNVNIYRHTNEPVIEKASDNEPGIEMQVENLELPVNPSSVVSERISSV
# Sequence of UniProt Q9HB89 (whole entry, looked up): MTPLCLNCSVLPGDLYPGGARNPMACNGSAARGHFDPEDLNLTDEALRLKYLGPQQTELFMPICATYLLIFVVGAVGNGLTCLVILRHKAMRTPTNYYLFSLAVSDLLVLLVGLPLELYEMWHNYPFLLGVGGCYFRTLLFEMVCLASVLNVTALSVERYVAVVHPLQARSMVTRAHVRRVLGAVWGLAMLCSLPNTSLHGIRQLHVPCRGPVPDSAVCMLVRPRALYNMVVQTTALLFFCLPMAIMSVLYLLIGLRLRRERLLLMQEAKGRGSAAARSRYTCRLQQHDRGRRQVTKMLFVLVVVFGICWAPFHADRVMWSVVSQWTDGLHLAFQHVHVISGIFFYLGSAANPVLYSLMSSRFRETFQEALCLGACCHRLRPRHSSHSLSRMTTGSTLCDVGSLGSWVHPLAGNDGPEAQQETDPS
# Sequence of UniProt P08172 (whole entry, looked up): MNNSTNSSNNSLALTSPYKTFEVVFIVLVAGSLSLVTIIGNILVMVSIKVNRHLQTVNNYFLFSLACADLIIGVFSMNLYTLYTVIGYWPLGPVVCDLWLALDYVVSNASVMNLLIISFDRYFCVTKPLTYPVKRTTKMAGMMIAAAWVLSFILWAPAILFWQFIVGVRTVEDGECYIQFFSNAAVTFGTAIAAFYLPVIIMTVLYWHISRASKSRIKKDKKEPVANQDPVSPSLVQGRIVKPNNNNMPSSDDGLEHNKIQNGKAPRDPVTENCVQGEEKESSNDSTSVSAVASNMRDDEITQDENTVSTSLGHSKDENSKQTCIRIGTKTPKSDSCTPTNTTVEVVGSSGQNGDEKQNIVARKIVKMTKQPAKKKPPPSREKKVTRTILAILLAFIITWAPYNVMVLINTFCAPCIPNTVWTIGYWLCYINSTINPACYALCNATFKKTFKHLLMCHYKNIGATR
Structure (SMILES),target,assay,system,conditions,EC50 [nM]
c1cc(N2CCNCC2)c2cc[nH]c2c1,"Muscarinic acetylcholine receptor M2 (CHRM2, Homo sapiens, UniProt P08172)","ERK1/2 phosphorylation, agonist",CHO cells,,> 20000
CC[C@H](C)[C@H](NC(=O)[C@H](Cc1ccccc1)NC(=O)[C@H](CCC(=O)O)NC(=O)[C@H](CCCNC(=N)N)NC(=O)[C@H](C)NC(=O)[C@H](C)NC(=O)[C@H](CCC(N)=O)NC(=O)[C@H](CCC(=O)O)NC(=O)[C@H](CCC(=O)O)NC(=O)[C@H](CC(C)C)NC(=O)[C@H](Cc1ccc(O)cc1)NC(=O)[C@H](CO)NC(=O)[C@H](CO)NC(=O)[C@@H](NC(=O)[C@H](CC(=O)O)NC(=O)[C@H](CO)NC(=O)[C@@H](NC(=O)[C@H](Cc1ccccc1)NC(=O)[C@@H](NC(=O)CNC(=O)[C@H](CCC(=O)O)NC(=O)[C@H](C)NC(=O)CCc1cnc[nH]1)[C@@H](C)O)[C@@H](C)O)C(C)C)C(=O)N[C@@H](C)C(=O)N[C@@H](Cc1c[nH]c2ccccc12)C(=O)N[C@@H](CC(C)C)C(=O)N[C@H](C(=O)N[C@@H](CCCCNC(=O)COCCOCCNC(=O)COCCOCCNC(=O)CC[C@H](NC(=O)CCCCCCCCCCCCCCCCC(=O)O)C(=O)O)C(=O)NCC(=O)N[C@@H](CCCNC(=N)N)C(=O)N[C@@H](CCCCNc1c(NCCCCCN(O)C(=O)CCC(=O)NCCCCCN(O)C(=O)CCC(=O)NCCCCCN(O)C(C)=O)c(=O)c1=O)C(=O)NCC(=O)NCC(=O)N[C@@H](CO)C(=O)N[C@@H](CCCCNc1c(NCCCCCN(O)C(=O)CCC(=O)NCCCCCN(O)C(=O)CCC(=O)NCCCCCN(O)C(C)=O)c(=O)c1=O)C(=O)NCC(=O)NCC(=O)N[C@@H](CO)C(=O)N[C@@H](CCCCNc1c(NCCCCCN(O)C(=O)CCC(=O)NCCCCCN(O)C(=O)CCC(=O)NCCCCCN(O)C(C)=O)c(=O)c1=O)C(=O)O)C(C)C,GLP1R,"cAMP reporter gene, agonist, CRE luciferase",BHK,"with Zr, 1% HSA",0.28
CC(C)C[C@H](NC(=O)[C@H](Cc1ccccc1)NC(=O)[C@H](Cc1ccc(O)cc1)NC(=O)CNC(=O)[C@H](CCCCN)NC(=O)[C@H](CO)NC(=O)[C@H](CCC(N)=O)NC(=O)CNC(=O)[C@@H](NC(=O)[C@H](CO)NC(=O)[C@@H]1CCCN1C(=O)[C@H](CO)NC(=O)[C@H](CCC(N)=O)NC(=O)[C@H](Cc1ccc(O)cc1)NC(=O)[C@H](CCC(=O)O)NC(=O)[C@H](C)NC(=O)[C@H](CCCCN)NC(=O)[C@@H](N)Cc1ccccc1)C(C)C)C(=O)N[C@@H](Cc1ccccc1)C(=O)N[C@@H](CCCNC(=N)N)C(=O)N1CCC[C@H]1C(=O)N[C@@H](CCCNC(=N)N)C(=O)N[C@@H](CC(N)=O)C(N)=O,"Neuromedin-U receptor 1 (NMUR1, Homo sapiens, UniProt Q9HB89)","beta-arrestin recruitment, agonist, PathHunter luminescence",CHO-K1,"90 min, 37 °C",0.69
COc1cccc(-c2ccc([C@@H]3[C@@H](CO)N4CCCCN(C(=O)Cc5ccncc5)C[C@@H]34)cc2)c1,"Insulin-degrading enzyme (IDE, Homo sapiens, UniProt P14735)","enzyme activity, inhibitor, fluorogenic kinetic",,with: Mca-RPPGFSAFK(Dnp)-OH substrate,14700
CC[C@H](C)[C@H](NC(=O)[C@H](Cc1ccccc1)NC(=O)[C@H](CCC(=O)O)NC(=O)[C@H](CCCNC(=N)N)NC(=O)[C@H](C)NC(=O)[C@H](C)NC(=O)[C@H](CCC(N)=O)NC(=O)[C@H](CCC(=O)O)NC(=O)[C@H](CCC(=O)O)NC(=O)[C@H](CC(C)C)NC(=O)[C@H](Cc1ccc(O)cc1)NC(=O)[C@H](CO)NC(=O)[C@H](CO)NC(=O)[C@@H](NC(=O)[C@H](CC(=O)O)NC(=O)[C@H](CO)NC(=O)[C@@H](NC(=O)[C@H](Cc1ccccc1)NC(=O)[C@@H](NC(=O)CNC(=O)[C@H](CCC(=O)O)NC(=O)[C@H](C)NC(=O)CCc1cnc[nH]1)[C@@H](C)O)[C@@H](C)O)C(C)C)C(=O)N[C@@H](C)C(=O)N[C@@H](Cc1c[nH]c2ccccc12)C(=O)N[C@@H](CC(C)C)C(=O)N[C@H](C(=O)N[C@@H](CCCNC(=N)N)C(=O)NCC(=O)N[C@@H](CCCNC(=N)N)C(=O)N[C@@H](CCCCNC(=O)COCCOCCNC(=O)COCCOCCNC(=O)CC[C@H](NC(=O)CCCCCCCCCCCCCCCCC(=O)O)C(=O)O)C(=O)NCC(=O)NCC(=O)N[C@@H](CO)C(=O)N[C@@H](CCCCNc1c(NCCCCCN(O)C(=O)CCC(=O)NCCCCCN(O)C(=O)CCC(=O)NCCCCCN(O)C(C)=O)c(=O)c1=O)C(=O)N[C@@H](CCCCNc1c(NCCCCCN(O)C(=O)CCC(=O)NCCCCCN(O)C(=O)CCC(=O)NCCCCCN(O)C(C)=O)c(=O)c1=O)C(=O)O)C(C)C,GLP1R,"cAMP reporter gene, agonist, CRE luciferase",BHK,"with Zr, 1% HSA",0.11
CC[C@H](C)[C@H](NC(=O)[C@H](Cc1ccccc1)NC(=O)[C@H](CC(=O)O)NC(=O)[C@H](CCCNC(=N)N)NC(=O)[C@@H](NC(=O)[C@H](C)NC(=O)[C@H](CC(C)C)NC(=O)[C@H](CC(N)=O)NC(=O)[C@H](CC(=O)O)NC(=O)[C@H](CC(C)C)NC(=O)[C@@H](NC(=O)[C@@H](NC(=O)[C@H](CO)NC(=O)[C@H](CCSC)NC(=O)[C@H](CCC(=O)O)NC(=O)[C@H](CC(=O)O)NC(=O)[C@H](CO)NC(=O)[C@H](Cc1ccccc1)NC(=O)[C@H](CO)NC(=O)CNC(=O)[C@H](CC(=O)O)NC(=O)[C@H](C)NC(=O)[C@@H](N)Cc1c[nH]cn1)[C@@H](C)O)[C@@H](C)CC)[C@@H](C)O)C(=O)N[C@@H](CC(N)=O)C(=O)N[C@@H](Cc1c[nH]c2ccccc12)C(=O)N[C@@H](CC(C)C)C(=O)N[C@H](C(=O)N[C@@H](CCC(N)=O)C(=O)N[C@H](C(=O)N[C@@H](CCCCN)C(=O)N[C@H](C(=O)N[C@H](C(=O)N[C@@H](CC(=O)O)C(=O)O)[C@@H](C)O)[C@@H](C)CC)[C@@H](C)O)[C@@H](C)CC,GLP1R,"reporter gene, agonist, CRE-luciferase reporter",HEK-293T,12 h,19.7
COc1cc(C(=O)N2CC[C@@H](O)[C@@H](N)C2)cc2nc(-c3cc4ccccc4n3CC3CC3)n(C)c12,"5-hydroxytryptamine receptor 2C (HTR2C, Homo sapiens, UniProt P28335)","intracellular calcium, agonist, luminescence",,,> 39800
C#Cc1sc2ncn(CC(=O)N3CC(C)(F)C3)c(=O)c2c1-c1ccc(F)c(Br)c1,"Grin1/Grin2b/Glutamate receptor ionotropic, NMDA 2D (Rattus norvegicus, UniProt P35439+Q00960+Q62645)","ion current, potentiator, two-electrode voltage clamp",Xenopus oocytes,,660 ± 150
CCCCC/C=C\C/C=C\C/C=C\C/C=C\CCCC(=O)NCCO,"Transient receptor potential cation channel subfamily V member 1 (Trpv1, Mus musculus, UniProt Q704Y3, Y512F)","ion current, agonist, whole-cell patch clamp",,"24 °C, Y512F, +80 mV",4010 ± 510
